Measurements pooled from the literature.
Compare with care: the assays were run in different laboratories. Numbers after ± are the reported error.

`CCC(CC)COC(=O)[C@H](C)N[P@](=O)(OC[C@H]1O[C@@](C#N)(c2ccc3c(N)ncnn23)[C@H](O)[C@@H]1O)Oc1ccccc1` gave a half-life of 1.1 min (metabolic stability; human, liver microsomes; 1 µM, pH 7.4).
`CC[N+]1(CC(=O)OC2CCCCCCCCCCC2)CCCCC1.[I-]` has a half-life of under 2 min (metabolic stability; human, liver microsomes; 1 µM, pH 7.4).
`CC(C)Oc1cc(OCCCCCCCCn2ccnc2)ccc1NC(=N)c1ccccn1` has a half-life of 52 to 68 min (metabolic stability; human, liver microsomes; 3 µM).
The half-life of `O=C(C[S+]([O-])Cc1ccco1)C12CC3CC(CC(C3)C1)C2` (stereo not drawn) is reported as 30 to 40 min (metabolic stability; human, liver microsomes).
`CCCC[N+]1(CC(=O)OC2CCCCCCCCCCC2)CCCCC1.[I-]` gave a half-life of under 2 min (metabolic stability; human, liver microsomes; 1 µM, pH 7.4).
For `CC1CCN(Cc2no[n+]([O-])c2-c2ccc(F)cc2)CC1`, the half-life was 50 to 110 min (C57BL/6 mice, male, plasma and forebrain; intraperitoneal or oral, 20 mg/kg, range over both routes).
`OC[C@H]1O[C@@H](OCCc2ccc(O)cc2)[C@H](O)[C@@H](O)[C@@H]1O` has a half-life of 43.9 min (Balb/c tumour-bearing mice, plasma; oral, 109.2 mg/kg SNZ).
`CC[C@H](C)[C@@H]1NC(=O)[C@H](Cc2ccc(O)cc2)NC(=O)[C@@H](N)CSSC[C@@H](C(=O)N2CCC[C@H]2C(=O)N[C@@H](CC(C)C)C(=O)NCC(N)=O)NC(=O)[C@H](CC(N)=O)NC(=O)[C@H](CCC(N)=O)NC1=O` gave a half-life of 18.5 ± 5.3 min (microdialysis, radioimmunoassay; knock-out male mice lacking compound, hippocampus extracellular fluid; intranasal, 12 µg, time to half of Cmax).
`C[N+]1(CC(=O)OC2CCCCCCCCCCC2)CCCCC1.[I-]` has a half-life of 3.4 min (metabolic stability; human, liver microsomes; 1 µM, pH 7.4).
The half-life of `CNCc1ccc(-c2[nH]c3cc(F)cc4c3c2CCNC4=O)cc1` is reported as about 1020 min (human; oral).
With `C[N+]1(CC(=O)OC2CCCCCCCCCCC2)CCOCC1.[I-]` the half-life was under 2 min (metabolic stability; human, liver microsomes; 1 µM, pH 7.4).
The half-life of `CC[C@H](C)[C@H](NC(=O)[C@H](CO)NC(=O)[C@H](Cc1ccc(O)cc1)NC(=O)[C@H](CC(=O)O)NC(=O)[C@H](CO)NC(=O)[C@@H](NC(=O)[C@H](Cc1ccccc1)NC(=O)[C@@H](NC(=O)CNC(=O)[C@H](CCC(=O)O)NC(=O)[C@H](C)NC(=O)[C@@H](N)Cc1ccc(O)cc1)[C@@H](C)O)[C@@H](C)CC)C(=O)N[C@@H](C)C(=O)N[C@@H](CCSC)C(=O)N[C@@H](CC(=O)O)C(=O)N[C@@H](CCCCN)C(=O)N[C@H](C(=O)N[C@@H](CCCNC(=N)N)C(=O)N[C@@H](CCC(N)=O)C(=O)N[C@@H](CCC(N)=O)C(=O)N[C@@H](CC(=O)O)C(=O)N[C@@H](Cc1ccccc1)C(=O)N[C@H](C(=O)N[C@@H](CC(N)=O)C(=O)N[C@@H](Cc1c[nH]c2ccccc12)C(=O)N[C@@H](CC(C)C)C(=O)N[C@@H](CC(C)C)C(=O)N[C@@H](C)C(=O)N[C@@H](CCC(N)=O)C(=O)N[C@@H](CCCNC(=N)N)C(=O)NCC(=O)N[C@@H](CCCCN)C(=O)N[C@@H](CCCCN)C(=O)N[C@@H](CO)C(=O)N[C@@H](CC(=O)O)C(=O)N[C@@H](Cc1c[nH]c2ccccc12)C(=O)N[C@@H](CCCCN)C(=O)N[C@@H](Cc1c[nH]cn1)C(=O)N[C@@H](CC(N)=O)C(=O)N[C@H](C(=O)N[C@H](C(=O)N[C@@H](CCC(N)=O)C(=O)O)[C@@H](C)O)[C@@H](C)CC)C(C)C)[C@@H](C)CC` is reported as 5 ± 0.6 min (RIA, item: intact compound; female C57Bl/6Jrj mice, plasma; intravenous, 25 nmol/kg, with: Val-Pyr 1.5 mg subcutaneous).

Some of these lines once more:
For `CC1CCN(Cc2no[n+]([O-])c2-c2ccc(F)cc2)CC1`, the half-life was 50 to 110 min (C57BL/6 mice, male, plasma and forebrain; intraperitoneal or oral, 20 mg/kg, range over both routes).
`OC[C@H]1O[C@@H](OCCc2ccc(O)cc2)[C@H](O)[C@@H](O)[C@@H]1O` has a half-life of 43.9 min (Balb/c tumour-bearing mice, plasma; oral, 109.2 mg/kg SNZ).
